Measurements collected from several papers.
Each line is one published result; not all experiments were run side by side.
Target: Vascular endothelial growth factor receptor 3 (FLT4, Homo sapiens, UniProt P35916)
Chain of UniProt P35916 (whole entry, looked up): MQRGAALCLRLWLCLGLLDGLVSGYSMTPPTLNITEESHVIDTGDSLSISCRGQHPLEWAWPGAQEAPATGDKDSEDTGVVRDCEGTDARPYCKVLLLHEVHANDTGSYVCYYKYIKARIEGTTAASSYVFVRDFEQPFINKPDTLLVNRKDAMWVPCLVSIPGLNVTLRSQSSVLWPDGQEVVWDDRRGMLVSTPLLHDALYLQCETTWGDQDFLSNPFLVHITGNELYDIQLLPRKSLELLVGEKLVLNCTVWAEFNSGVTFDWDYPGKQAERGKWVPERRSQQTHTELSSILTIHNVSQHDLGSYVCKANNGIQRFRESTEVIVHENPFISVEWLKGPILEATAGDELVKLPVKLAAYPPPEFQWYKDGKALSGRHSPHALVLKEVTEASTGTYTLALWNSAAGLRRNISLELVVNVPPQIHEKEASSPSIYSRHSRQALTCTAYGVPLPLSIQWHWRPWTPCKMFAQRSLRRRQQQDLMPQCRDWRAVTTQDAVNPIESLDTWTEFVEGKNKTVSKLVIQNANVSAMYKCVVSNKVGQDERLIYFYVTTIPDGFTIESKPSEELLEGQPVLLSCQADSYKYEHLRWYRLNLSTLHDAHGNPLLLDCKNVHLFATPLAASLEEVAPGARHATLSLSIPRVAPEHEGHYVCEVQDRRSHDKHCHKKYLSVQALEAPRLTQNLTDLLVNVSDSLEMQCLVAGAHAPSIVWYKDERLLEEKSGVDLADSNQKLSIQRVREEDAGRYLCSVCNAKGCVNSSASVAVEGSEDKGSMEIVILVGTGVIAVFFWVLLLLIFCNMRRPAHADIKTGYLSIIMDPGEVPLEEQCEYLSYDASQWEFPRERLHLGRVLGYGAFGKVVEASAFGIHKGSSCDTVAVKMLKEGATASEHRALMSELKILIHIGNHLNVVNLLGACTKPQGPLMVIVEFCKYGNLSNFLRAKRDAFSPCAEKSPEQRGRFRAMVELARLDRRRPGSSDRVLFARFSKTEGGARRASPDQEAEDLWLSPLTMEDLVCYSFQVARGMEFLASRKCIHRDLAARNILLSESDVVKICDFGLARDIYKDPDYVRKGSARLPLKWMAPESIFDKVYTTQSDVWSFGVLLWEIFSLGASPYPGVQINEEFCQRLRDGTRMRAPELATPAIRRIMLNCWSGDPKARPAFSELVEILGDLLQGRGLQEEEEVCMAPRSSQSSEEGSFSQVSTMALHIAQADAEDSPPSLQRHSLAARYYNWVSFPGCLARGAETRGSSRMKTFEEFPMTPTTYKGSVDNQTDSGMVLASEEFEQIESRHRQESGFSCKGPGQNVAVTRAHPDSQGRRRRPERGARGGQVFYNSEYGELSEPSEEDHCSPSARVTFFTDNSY

Compound	test	setting	how to read	endpoint	result
C=CC(=O)Nc1cccc(-c2cnc3[nH]cc(C(=O)NC(C)(C)C)c3n2)c1	enzyme activity, inhibitor	0.1 µM	–	inhibition	45%
Cc1ccc(-c2c(/C=C(\C#N)C(=O)NC(C)C)n(CCCO)c3ncnc(N)c23)cc1	cell-free assay, competition with immobilised ligand	1 µM	–	remaining binding	100%
Nc1ncc(-c2cc(-c3cnn(CC(F)(F)F)c3)ncc2F)nc1C(=O)NC1CNCC(F)C1 (centres unmarked)	enzyme activity	1 µM	reference: DMSO control	remaining activity	107%
Cc1cccc(O[C@H]2CCC[C@@H](C(C)CNCc3ccncc3)C2)c1 (relative stereo)	cell-free assay	1 µM	–	inhibition	2%
C=CC(=O)N1CCc2ccc(-n3c(=O)ccc4cnc5ccc(-c6cnn(C)c6)cc5c43)cc21	KINOMEscan	1 µM	reference: DMSO control	remaining binding	95%
COc1cc(Nc2nccc(-c3cnn4nc(OC)ccc34)n2)cc(C(F)(F)F)c1	binding, competition with immobilised ligand	1 µM	–	remaining binding	100%
CCn1cc(C(=O)O)c(=O)c2c(N)c(F)c(NC3CCCCC3)cc21	kinase activity	0.1 µM, together with: ATP at Km	–	inhibition	3.5%
COc1c(OCCCN2CCOCC2)ccc2c1N=C(NC(=O)c1cnc(N)nc1)N1CCN=C21	kinase activity, inhibitor	1 µM	reference: untreated control	remaining activity	102%
Cc1[nH]nc2c1N=C(c1ccccc1Cl)c1cnc(N3CCOCC3)cc1N2	enzyme activity, inhibitor	0.5 µM	–	inhibition	> 99%
COc1ccc(NC(=O)Nc2ccc3c(c2)C(=O)N(C(C)CO)CC(C)C(CN(C)Cc2ccc4c(c2)OCO4)O3)cc1 (centres unmarked)	kinase activity, KinaseProfiler	0.03 µM, species human	reference: control	remaining activity	101%
CN1CCN(c2ccc(Nc3ncc(Cl)c(Nc4ccccc4P(C)(C)=O)n3)cc2Br)CC1	enzyme activity, inhibitor	0.1 µM	–	inhibition	48.6%
CNC(=O)C[C@H](Cc1ccc(C#N)cc1)NC(=O)c1cc(-c2ccc(CN[C@H](C)c3ccc(C)cc3)o2)ccc1Cl	enzyme activity, inhibitor	1 µM	–	activity vs control	106%
CCN1CCN(Cc2ccc(C(=O)Nc3ccc(C)c(NCc4cnc5[nH]ccc5c4OC)c3)cc2C(F)(F)F)CC1	binding, competition with immobilised ligand	1 µM	–	remaining binding	11%
CNC1C[S+]2CC[S+]3CC[S+](C1)[Ru-4]321([N]=C=S)[n]2c3ccc(OC)cc3c3c4c(c5cc(F)c[n+]1c5c32)C(=O)NC4=O (centres unmarked)	KinomeScan	0.1 µM	reference: untreated	remaining binding	100%
CCN1CCN(Cc2ccc(NC(=O)c3ccc(C)c(NC(=O)c4cncc(-c5cccs5)c4)c3)cc2C(F)(F)F)CC1	binding, competition with immobilised ligand	1 µM	–	remaining binding	11%
C[C@H]1CN(C(=O)c2cn(-c3ccnc(N)n3)c3cc(C#CC4(O)CCCCC4)ccc23)CCN1	enzyme activity, inhibitor, FRET	1 µM	–	inhibition	-2%
NC(=O)[C@@H](O)C[C@H]1CCc2sc3ncnc(O[C@H]4CC[C@H](N5CCOCC5)CC4)c3c21	enzyme activity, inhibitor	10 µM	–	inhibition	17%
